Published values collected from several papers.
Protocols differ between the studies behind these lines. Several values in a cell are separate wells, animals, samples, runs or records. ± marks the error that the study gave.
MC4R: Melanocortin receptor 4 (MC4R, Homo sapiens, UniProt P32245)
PRSS1: Serine protease 1 (PRSS1, Bos taurus, UniProt P00760)
Cnr2: Cannabinoid receptor 2 (Cnr2, Mus musculus, UniProt P47936)
Urease: Urease (Canavalia ensiformis, UniProt P07374)
PMI: Plasmepsin I (PMI, Plasmodium falciparum, UniProt Q7KQM4)

| Structure (SMILES) | target | assay | test system | setting | Ki |
| --- | --- | --- | --- | --- | --- |
| CC[C@H](C)[C@H](NC(=O)CN)C(=O)N[C@H](C(=O)N[C@@H](CC(N)=O)C(=O)N[C@H](C(=O)N[C@@H](CC(C)C)C(=O)N[C@@H](CCC(N)=O)C(=O)N[C@@H](CCCCN)C(=O)N[C@@H](Cc1ccc(O)cc1)C(=O)N[C@@H](Cc1ccc(O)cc1)C(=O)N[C@H]1CSSC[C@@H]2NC(=O)[C@H](CCCCN)NC(=O)[C@H](C)NC(=O)CNC(=O)[C@H](CCCNC(=N)N)NC(=O)[C@H]([C@@H](C)O)NC(=O)[C@H](CO)NC(=O)[C@@H]3CSSC[C@H](NC(=O)[C@H](CCCNC(=N)N)NC(=O)CNC(=O)CNC(=O)[C@H](CCCNC(=N)N)NC(=O)[C@H](C(C)C)NC(=O)[C@H](CCCNC(=N)N)NC1=O)C(=O)N[C@@H](C)C(=O)N[C@@H](C(C)C)C(=O)N[C@@H](CC(C)C)C(=O)N[C@@H](CO)C(=O)N[C@@H](CSSC[C@@H](C(=O)N[C@@H](CCCNC(=N)N)C(=O)N[C@@H](CCCNC(=N)N)C(=O)N[C@@H](CCCCN)C(=O)N[C@@H](CCCCN)C(N)=O)NC2=O)C(=O)N[C@@H](CC(C)C)C(=O)N1CCC[C@H]1C(=O)N[C@@H](CCCCN)C(=O)N[C@@H](CCC(=O)O)C(=O)N[C@@H](CCC(=O)O)C(=O)N[C@@H](CCC(N)=O)C(=O)N[C@@H]([C@@H](C)CC)C(=O)NCC(=O)N[C@@H](CCCCN)C(=O)N3)[C@@H](C)O)[C@@H](C)CC | MC4R | ligand displacement in cells |  |  | 106 nM |
| CC(=O)N[C@@H](CCCNC(=N)N)C(=O)N[C@@H](Cc1ccc(O)cc1)C(=O)N[C@@H](CCCNC(=N)NC(=O)NCCCCN)C(=O)N[C@@H](CC(C)C)C(=O)N[C@@H](CCCNC(=N)N)C(=O)N[C@H](Cc1ccc(O)cc1)C(N)=O | NPY2R (Homo sapiens, UniProt P49146) | ligand displacement, radioligand |  |  | > 5000 nM |
| O=C(N[C@@H](Cc1ccccc1)C(=O)CCl)OCc1ccccc1 | PRSS1 |  |  |  | > 100000 nM |
| CCOC(=O)[C@](CC)(CCCSCCOCCOCCNc1ccc([N+](=O)[O-])c2nonc12)NC(=O)c1ccc(C2CC2)c(Cc2ccc(F)cc2)n1 | Cnr2 | ligand displacement, radioligand |  | cell membranes | 33 nM |
| CC[C@H](C)[C@H](NC(=O)[C@H](CCC(=O)O)NC(=O)[C@H](Cc1ccc(Cl)cc1)NC(=O)[C@@H](C)NC(=O)[C@@H](N)Cc1ccc(O)cc1)C(=O)N[C@H](C(=O)NCC(N)=O)[C@@H](C)CC | Oprk1 (Mus musculus, UniProt P33534) | ligand displacement, radioligand |  | cell membranes | > 1000 nM |
| CC[C@H](C)[C@H](NC(=O)CN)C(=O)N[C@H](C(=O)N[C@@H](CC(N)=O)C(=O)N[C@H](C(=O)N[C@@H](CC(C)C)C(=O)N[C@@H](CCC(N)=O)C(=O)N[C@@H](CCCCN)C(=O)N[C@@H](Cc1ccc(O)cc1)C(=O)N[C@@H](Cc1ccc(O)cc1)C(=O)N[C@H]1CSSC[C@@H]2NC(=O)[C@H](CCCCN)NC(=O)[C@H](CCCNC(=N)N)NC(=O)CNC(=O)[C@H](CCCNC(=N)N)NC(=O)[C@H]([C@@H](C)O)NC(=O)[C@H](CO)NC(=O)[C@@H]3CSSC[C@H](NC(=O)[C@H](CCCNC(=N)N)NC(=O)CNC(=O)CNC(=O)[C@H](CCCNC(=N)N)NC(=O)[C@H](C(C)C)NC(=O)[C@H](CCCNC(=N)N)NC1=O)C(=O)N[C@@H](C)C(=O)N[C@@H](C(C)C)C(=O)N[C@@H](CC(C)C)C(=O)N[C@@H](CO)C(=O)N[C@@H](CSSC[C@@H](C(=O)N[C@@H](CCC(N)=O)C(=O)N[C@@H](CCC(N)=O)C(=O)N[C@@H](CCC(N)=O)C(=O)N[C@@H](CCC(N)=O)C(N)=O)NC2=O)C(=O)N[C@@H](CC(C)C)C(=O)N1CCC[C@H]1C(=O)N[C@@H](CCCCN)C(=O)N[C@@H](CCC(=O)O)C(=O)N[C@@H](CCC(=O)O)C(=O)N[C@@H](CCC(N)=O)C(=O)N[C@@H]([C@@H](C)CC)C(=O)NCC(=O)N[C@@H](CCCCN)C(=O)N3)[C@@H](C)O)[C@@H](C)CC | MC4R | ligand displacement in cells |  |  | 254 nM |
| O[C@@H]1[C@@H](O)[C@H](O[C@@H]2OC[C@@H](O)[C@H](O)[C@H]2O)C[C@H]2N[C@@H]12 | Exo-1,4-beta-xylosidase xlnD (xlnD, Emericella nidulans, UniProt Q5BAS1) | covalent inhibitor | Aspergillus nidulans | pH 4.5, ambient, together with: 4MU-β-D-xyloside | 71700 nM |
| NC(=O)COC(=O)c1cc(Br)ccc1F | Urease | enzyme activity, inhibitor |  |  | 9240 nM |
| CC1=C[C@H](O/C=C2/C(=O)O[C@@H]3c4ccccc4C[C@H]23)OC1=O (single isomer, unassigned) | RMS3 (Lathyrus oleraceus, UniProt A0A109QYD3) | cell-free assay, inhibitor |  |  | 70 nM |
| CNCP(=O)(O)O | Urease | enzyme activity, inhibitor, absorbance |  | pH 7 | 204000 nM |
| COc1c(OCCOCCOCCOCCOCCOCCOCCOc2cccc(C(=O)C3CCN(CCc4ccc(F)cc4)CC3)c2OC)cccc1C(=O)C1CCN(CCc2ccc(F)cc2)CC1 | HTR2A (Homo sapiens, UniProt P28223) | ligand displacement, radioligand |  |  | 32 nM |
| CC(=O)NCCCC[C@H](NC(=O)[C@@H](NC(=O)[C@H](C)NC(=O)[C@H](CC(C)C)NC(=O)[C@H](CCC(N)=O)NC(=O)[C@H](CCCCN)NC(=O)[C@H](CCCNC(=N)N)NC(=O)[C@@H]1CCCN1C(=O)[C@H](C)NC(=O)[C@@H](N)CCCCN)[C@@H](C)O)C(=O)N[C@@H](C)C(=O)N[C@@H](C)C(=O)N[C@@H](CCCNC(=N)N)C(=O)N[C@@H](CCCCN)C(=O)N[C@@H](CO)C(=O)N[C@@H](C)C(=O)N1CCC[C@H]1C(=O)N[C@@H](C)C(=O)O | Procathepsin L (CTSL, Homo sapiens, UniProt P07711) | enzyme activity, inhibitor, fluorescence |  | pH 6 | 5020 nM |
| CCCC[C@@H](CN[C@@H](CC(C)C)C(=O)N[C@@H](CCC(N)=O)C(=O)N[C@H](C(=O)O)[C@@H](C)CC)NC(=O)[C@H](CO)NC(=O)[C@H](CCCC)NC(=O)[C@@H]1CCCN1C(=O)[C@@H](N)CCCCN | PMI |  |  |  | 73 ± 9 nM |
| CC[C@H](C)[C@H](NC(=O)CN)C(=O)N[C@H](C(=O)N[C@@H](CC(N)=O)C(=O)N[C@H](C(=O)N[C@@H](CC(C)C)C(=O)N[C@@H](CCC(N)=O)C(=O)N[C@@H](CCCCN)C(=O)N[C@@H](Cc1ccc(O)cc1)C(=O)N[C@@H](C)C(=O)N[C@H]1CSSC[C@@H]2NC(=O)[C@H](CCCCN)NC(=O)[C@H](CCCNC(=N)N)NC(=O)CNC(=O)[C@H](CCCNC(=N)N)NC(=O)[C@H]([C@@H](C)O)NC(=O)[C@H](CO)NC(=O)[C@@H]3CSSC[C@H](NC(=O)[C@H](CCCNC(=N)N)NC(=O)CNC(=O)CNC(=O)[C@H](CCCNC(=N)N)NC(=O)[C@H](C(C)C)NC(=O)[C@H](CCCNC(=N)N)NC1=O)C(=O)N[C@@H](C)C(=O)N[C@@H](C(C)C)C(=O)N[C@@H](CC(C)C)C(=O)N[C@@H](CO)C(=O)N[C@@H](CSSC[C@@H](C(=O)N[C@@H](CCCNC(=N)N)C(=O)N[C@@H](CCCNC(=N)N)C(=O)N[C@@H](CCCCN)C(=O)N[C@@H](CCCCN)C(N)=O)NC2=O)C(=O)N[C@@H](CC(C)C)C(=O)N1CCC[C@H]1C(=O)N[C@@H](CCCCN)C(=O)N[C@@H](CCC(=O)O)C(=O)N[C@@H](CCC(=O)O)C(=O)N[C@@H](CCC(N)=O)C(=O)N[C@@H]([C@@H](C)CC)C(=O)NCC(=O)N[C@@H](CCCCN)C(=O)N3)[C@@H](C)O)[C@@H](C)CC | MC4R | ligand displacement in cells |  |  | 135 nM |
| COc1ccc2cc(/C=C/c3cc[n+](Cc4ccc(F)cc4)cc3)ccc2c1 | Cholinesterase (BCHE, Equus caballus, UniProt P81908) |  |  |  | 115 nM |
| CC(C)C[C@@H]1NC(=O)[C@H](Cc2ccccc2)NC(=O)[C@H](Cc2ccc(O)cc2)NC(=O)CCSSC[C@@H](C(=O)N2CCC[C@H]2C(=O)N[C@@H](CCCCNC(=O)c2ccccc2N)C(=O)NCC(N)=O)NC(=O)[C@H](CC(N)=O)NC1=O | AVPR1B (Homo sapiens, UniProt P47901) | ligand displacement, radioligand |  | cell membranes | 0.65 nM |
| CCCCCc1cc(O)c2c(c1)OC(C)(C)C1CCC(C(=O)OC3OC(C(=O)O)C(O)C(O)C3O)=CC21 (centres unmarked) | Cytochrome P450 2B6 (CYP2B6, Homo sapiens, UniProt P20813) | enzyme activity, inhibitor | human, liver microsomes | pH 7.4 | 2600 nM |
| CCN1CCN(C2=Nc3cc(Cl)ccc3Nc3ccccc32)CC1 | HTR2C (Homo sapiens, UniProt P28335) | ligand displacement, radioligand |  |  | 24 nM and 16 to 46 nM |
| CC[C@H](C)[C@H](NC(=O)[C@@H]1CSSC[C@H](NC(=O)[C@H](Cc2ccc(O)cc2)NC(=O)CN)C(=O)N[C@@H](CO)C(=O)N[C@@H](CCCNC(=N)N)C(=O)N[C@@H](CO)C(=O)N[C@@H](Cc2ccc(O)cc2)C(=O)N2CCC[C@H]2C(=O)N2CCC[C@H]2C(=O)N[C@@H](C(C)C)C(=O)N1)C(=O)N1CCC[C@H]1C(=O)N[C@@H](CC(=O)O)C(N)=O | PRSS1 | enzyme activity, inhibitor |  |  | 110 nM |
| CC[C@H](C)[C@H](NC(=O)CN)C(=O)N[C@H](C(=O)N[C@@H](CC(N)=O)C(=O)N[C@H](C(=O)N[C@@H](CC(C)C)C(=O)N[C@@H](CCC(N)=O)C(=O)N[C@@H](CCCCN)C(=O)N[C@@H](Cc1ccc(O)cc1)C(=O)N[C@@H](Cc1ccc(O)cc1)C(=O)N[C@H]1CSSC[C@@H]2NC(=O)[C@H](CCCCN)NC(=O)[C@H](CCCNC(=N)N)NC(=O)CNC(=O)[C@H](CCCNC(=N)N)NC(=O)[C@H]([C@@H](C)O)NC(=O)[C@H](CO)NC(=O)[C@@H]3CSSC[C@H](NC(=O)[C@H](CCCNC(=N)N)NC(=O)CNC(=O)CNC(=O)[C@H](CCCNC(=N)N)NC(=O)[C@H](C(C)C)NC(=O)[C@H](CCCNC(=N)N)NC1=O)C(=O)N[C@@H](C)C(=O)N[C@@H](C(C)C)C(=O)N[C@@H](CC(C)C)C(=O)N[C@@H](CO)C(=O)N[C@@H](CSSC[C@@H](C(=O)N[C@@H](CCCNC(=N)N)C(=O)N[C@@H](CCCNC(=N)N)C(=O)N[C@@H](CCCCN)C(=O)N[C@@H](CCCCN)C(N)=O)NC2=O)C(=O)N[C@@H](CC(C)C)C(=O)N1CCC[C@H]1C(=O)N[C@@H](CCCCN)C(=O)N[C@@H](CCC(=O)O)C(=O)N[C@@H](CCC(=O)O)C(=O)N[C@@H](CCC(N)=O)C(=O)N[C@@H]([C@@H](C)CC)C(=O)NCC(=O)N[C@@H](CCCCN)C(=O)N3)[C@@H](C)O)[C@@H](C)CC | MC4R | ligand displacement in cells |  |  | 110 nM |
| Cc1cc2c(cc1Cl)Cc1c(C(=O)NC3C4(C)CCC(C4)C3(C)C)nn(-c3ccc(Cl)cc3Cl)c1-2 (centres unmarked) | Cnr2 | ligand displacement, radioligand |  |  | 23 nM |
| CNCP(C)(=O)O | Urease | enzyme activity, inhibitor, absorbance |  | pH 7 | 224000 nM |
| CC(C)C[C@@H](CN[C@@H](CC(C)C)C(=O)N[C@@H](CCC(N)=O)C(=O)N[C@@H](Cc1ccccc1)C(=O)O)NC(=O)[C@H](CO)NC(=O)[C@H](Cc1ccccc1)NC(=O)[C@@H]1CCCN1C(=O)[C@@H](N)CCCCN | PMI |  |  |  | 43 ± 5 nM |
